Results collected from several papers.
Lines come from different studies, so protocols differ. ± gives the spread as reported. Converted amounts (≈) assume the structure as drawn.

Structure (SMILES)	test	system	conditions	scale	measurement	value
CC12CC(c3ccc(S(C)(=O)=O)cc3)C3=C4CCC(=O)C=C4CCC3C1CCC2(O)C(F)(F)C(F)(F)F (centres unmarked)		human, plasma	oral, 5 mg, single dose, fasted		AUC	324 ng·h/mL
C=Cc1ccc([C@H]2C[C@@]3(C)[C@@H](CC[C@@]3(O)C(F)(F)C(F)(F)F)[C@@H]3CCC4=CC(=O)CCC4=C32)cc1		rat liver microsomes	100 % absorption assumed		maximal oral bioavailability	54%
NC[C@@H](C(=O)Nc1ccc(-c2cn[nH]c2)cc1)c1ccccc1	OECD 405 eye irritation	New Zealand White rabbit, eye	topical, 0.1%, 0 h (day 1)	direction not given	total eye irritation score	0
CC(C)[C@H](NC(=O)CNC(=O)[C@H](CCC(N)=O)NC(=O)[C@H](C)N)C(=O)O	LC-MS/MS	human, plasma	intravenous, 30 mg/kg three times daily, day 1, first dose, 10 min infusion, geometric mean		AUC(0-inf)	646 ng·h/mL
O=C(CCc1ccc(CNC(C(=O)OC2CCCC2)C2CCCCC2)cn1)NO (centres unmarked)		human	40 mg, single dose, geometric mean		CL/F	255 L/h
CCCC[C@H](NC(=O)CNC(=O)CNC(=O)CN1CCN(CC(=O)O)CCN(CC(=O)O)CCN(CC(=O)O)CC1)C(=O)N[C@H]1CC(=O)NCCCC[C@@H](C(N)=O)NC(=O)[C@H](Cc2c[nH]c3ccccc23)NC(=O)[C@H](CCCNC(=N)N)NC(=O)[C@@H](Cc2ccccc2)NC(=O)[C@H](Cc2c[nH]cn2)NC1=O [indium-111 labelled]		C57 mouse, female, B16/F1 melanoma, urine	intravenous, 0.037 MBq, 24 h		urinary excretion	93.2 ± 1.6%
Cc1ccc(OCC(=O)N(Cc2cccs2)c2ccn[nH]2)cc1		female Sprague-Dawley rat, plasma	oral, 10 mg/kg, single dose		bioavailability	0.26%
CC[C@H](C)[C@@H]1NC(=O)[C@H](Cc2ccccc2)NC(=O)[C@@H](NC(=O)[C@H](CCCNC(=N)N)NC(=O)[C@H](Cc2ccccc2)NC(=O)[C@H](Cc2ccccc2)NC(=O)[C@H](CCCCN)NC(=O)[C@H](CO)NC(=O)[C@H](CC(C)C)NC(=O)[C@H](CCCNC(=N)N)NC(=O)[C@H](CCSC)NC(=O)[C@H](C)N)CCNC(=O)NCCC[C@@H](C(=O)N[C@@H](CCCNC(=N)N)C(=O)N[C@@H](CCCCN)C(=O)N[C@@H](CCCCN)C(=O)O)NC(=O)[C@H](CC(C)C)NC1=O	circular dichroism	2.5 mM DPC		baseline: CSP1-E1A	Tm increase	~36 °C
CCCC[C@H](NC(C)=O)C(=O)N[C@H]1CC(=O)NCCCC[C@@H](C(=O)N[C@@H](C(=O)N2CCC[C@@H]2C(N)=O)C(C)C)NC(=O)[C@H](Cc2c[nH]c3ccccc23)NC(=O)[C@H](CCCN=C(N)N)NC(=O)[C@@H](Cc2ccc3ccccc3c2)NC(=O)[C@@H]2CCCN2C1=O		Beagle dog, both sexes, plasma	subcutaneous, once daily, 2.25 mg/kg, day 1		half-life	2.6 ± 0.2 h
CC(C)c1cnc(-c2cc(Cl)ccc2F)cc1Nc1ccncc1C(=O)NC(CO)CO	monotherapy, measured: myalgia	human patients	oral, dose not given, grade 5, phase I A		patients with treatment-related adverse event	0%
CCC(C)(C)NCC(=O)O	shake flask	water	24 h		logP	-1.28
C[C@H]1Nc2nc(=O)c3[nH]ccc3n2Cc2ccc(Cl)cc21		female rats, plasma	125 mg/kg, human dose 10 mg	baseline: rat over human	exposure ratio	not detected
CCCC[C@H](NC(C)=O)C(=O)N[C@H]1CC(=O)NCCCC[C@@H](C(=O)N[C@@H](C(=O)N2CCC[C@@H]2C(N)=O)C(C)C)NC(=O)[C@H](Cc2c[nH]c3ccccc23)NC(=O)[C@H](CCCN=C(N)N)NC(=O)[C@@H](Cc2ccc3ccccc3c2)NC(=O)[C@@H]2CCCN2C1=O		dog	dose not given, day 1, start of treatment		mean corpuscular volume	69.9 fL
CC/C=C\C/C=C\C/C=C\C/C=C\C/C=C\CCCCOC(CC)C(=O)O (centres unmarked)	[14C] label	male Wistar rat, kidney medulla	oral, 100 mg/kg, 4 h		radioactivity concentration	102 µg equiv/g
C[C@H]1NSc2nc(=O)c3[nH]ccc3n2Cc2ccc(Cl)cc21		Sprague-Dawley rat, both sexes, plasma	oral, 125 mg/kg/day	baseline: rat over human clinical doses	exposure ratio	≥ 36
CC(C)[C@H](NC(=O)[C@@H]1CCCN1C(=O)[C@H](CCCNC(=N)N)NC(=O)[C@H](CS)NC(=O)[C@H](Cc1c[nH]c2ccccc12)NC(=O)[C@H](CCCNC(=N)N)NC(=O)[C@@H](Cc1ccccc1)NC(=O)[C@H](Cc1c[nH]cn1)NC(=O)[C@H](CCC(=O)O)NC(=O)[C@H](CS)NC(=O)[C@H](CS)NC(=O)CNC(=O)[C@@H]1CC(=O)N[C@@H](CCCNC(=N)N)C(=O)NCC(=O)N[C@@H](CC(=O)O)C(=O)N[C@H](Cc2ccc(O)cc2)C(=O)N1)C(N)=O [technetium-99m labelled]		C57 mice B16/F1 melanoma female	iv, 2 h, together with: NDP-MSH blockade	baseline: tumour over liver	tumour-to-tissue ratio	1.01

Structure (SMILES)	test	system	conditions	scale	measurement	value
COc1ccc2cc(-c3ccc(-c4ccc(C)cn4)nc3)oc2c1	TCSPC	DMF			fluorescence lifetime	1.8 ns
CC(=O)Nc1ncc(CN2CC[C@H](Oc3cccc([18F])n3)C[C@@H]2C)s1		human, plasma	dose not given, 3 h		unchanged parent	20 to 30%
O=C(CCCCC[N+]#[C][99Tc-5]([C]#[N+]CCCCCC(=O)N[C@H]1C(O)O[C@H](CO)[C@@H](O)[C@@H]1O)([C]#[N+]CCCCCC(=O)N[C@H]1C(O)O[C@H](CO)[C@@H](O)[C@@H]1O)([C]#[N+]CCCCCC(=O)N[C@H]1C(O)O[C@H](CO)[C@@H](O)[C@@H]1O)([C]#[N+]CCCCCC(=O)N[C@H]1C(O)O[C@H](CO)[C@@H](O)[C@@H]1O)[C]#[N+]CCCCCC(=O)N[C@H]1C(O)O[C@H](CO)[C@@H](O)[C@@H]1O)N[C@H]1C(O)O[C@H](CO)[C@@H](O)[C@@H]1O (some centres unmarked)	biodistribution	BALB/c nude mouse U87 MG xenograft	2 h	baseline: tumour over muscle	tumour/muscle ratio	4.02 ± 0.42
CC(C)(C)[C@H](NC(=O)[C@H](CCONC(=N)N)NC(=O)Cc1ccc(CNC(=N)N)cc1)C(=O)N[C@@H](CCONC(=N)N)C(=O)NCc1ccc(C(=N)N)cc1		human liver microsomes 0.7 mg/mL	50 µM, 10 min, pH 7.4		depletion	12.1%
CC(C)=CCC[C@](C)(O)[C@H]1CC[C@]2(C)[C@@H]1[C@H](O)C[C@@H]1[C@@]3(C)CC[C@H](O)C(C)(C)[C@@H]3CC[C@]12C		Labrafac CC	72 h, 25 °C		solubility	3800 ± 820 µg/mL (≈ 8.25 mM)
O=c1[nH]c(=O)n(C2OC(CO)C(O)C2O)cc1-n1nnc2c1CCC1C(CO)C1CC2 (mixture of isomers)	frequency-domain fluorometry	methanol			average fluorescence lifetime	2.7 ns
COc1ccc([C@@H]2CC(=O)c3c(O)cc(O[C@@H]4O[C@H](CO[C@@H]5O[C@@H](C)[C@H](O)[C@@H](O)[C@H]5O)[C@@H](O)[C@H](O)[C@H]4O)cc3O2)cc1O		rat plasma	15.62 ng/mL, three freeze-thaw cycles	baseline: nominal concentration	relative error	9.47%
[11CH3]c1ccc2nc(C3CCC3)n(-c3ccc4[nH]ncc4c3)c2n1		human male, liver			absorbed radiation dose	11.1 µSv/MBq
COCC1CN(C2CCN(c3cc(OC)c(Nc4ncc(Br)c(Nc5ccc6c(c5P(C)(C)=O)OCCO6)n4)cc3C)CC2)C1		human	oral, 10 to 240 mg once daily, safety set, all grades		patients with weight loss	14.8%
OC1(C(F)(F)F)CCN(c2nc(Nc3ccnc(C(F)(F)F)c3)nc(-c3cccc(C(F)(F)F)n3)n2)C1 (centres unmarked)		Sprague-Dawley rat, both sexes, plasma	oral, 5 mg/kg daily for 14 days	baseline: day 14 over day 1	AUC(0-24h) accumulation ratio	2.2
C#CC1(NC(=O)C(CC(C)(C)F)NC(c2ccc(-c3ccc(S(C)(=O)=O)cc3)cc2)C(F)(F)F)CC1 (centres unmarked)	LC-MS UV trace	aqueous buffer	concentration not given, 23 h, pH 5.5, 37 °C, together with: cysteine 10 mM		cysteine adduct formation	< 1%
C[C@]12C[C@H](c3ccc(S(C)(=O)=O)cc3)C3=C4CCC(=O)C=C4CC[C@H]3[C@@H]1CC[C@@]2(O)C(F)(F)C(F)(F)F		human liver microsomes	100 % absorption assumed		maximal oral bioavailability	94%
CC(C)(O)c1ncc([S@](N)(=O)=NC(=O)Nc2c3c(cc4c2CCC4)CCC3)s1		human, plasma	oral, 3 mg, single dose, fasted, healthy volunteers		half-life	8.62 h
CC1=CC(C)(C)N=C2C=CC(=O)C=C12	LC-MS/MS	laying hens, kidney	oral in feed, 50 mg/kg feed ethoxyquin, 56 days		tissue residue	6.2 ± 2.7 ng/g
O=C(COc1ccc(CO)cc1)N(Cc1cccs1)c1cc[nH]n1	LC-MS EIC	dog liver microsomes, pooled, both sexes	10 µM, 60 min	baseline: reference compound at start	relative peak area	13.7%
CCCC[C@@H]1NC(=O)[C@@H](NC(=O)[C@H](CCC(=O)O)NC(=O)CNC(=O)CN2CCN(CC(=O)O)CCN(CC(=O)O)CCN(CC(=O)O)CC2)CCCCNC(=O)C[C@@H](C(N)=O)NC(=O)[C@H](C(C)C)NC(=O)[C@@H]2CCCN2C(=O)[C@H](CCCNC(=N)N)NC(=O)CNC(=O)[C@H](Cc2c[nH]c3ccccc23)NC(=O)[C@H](CCCNC(=N)N)NC(=O)[C@@H](Cc2ccccc2)NC(=O)[C@H](Cc2c[nH]cn2)NC(=O)[C@H](CCC(=O)O)NC1=O [gallium-67 labelled]		C57 mice, B16/F10 lung metastases	intravenous, 0.037 MBq, 4 h		lung uptake	1.49 ± 0.69 %ID/g

Some of these lines once more:
Structure (SMILES)	test	system	conditions	scale	measurement	value
CC1=CC(C)(C)N=C2C=CC(=O)C=C12	LC-MS/MS	laying hens, kidney	oral in feed, 50 mg/kg feed ethoxyquin, 56 days		tissue residue	6.2 ± 2.7 ng/g
CC(=O)Nc1ncc(CN2CC[C@H](Oc3cccc([18F])n3)C[C@@H]2C)s1		human, plasma	dose not given, 3 h		unchanged parent	20 to 30%
